Earlier results as cited in several papers.
± gives the spread as reported.
Cell line: HepG2

Compound	read-out	mode	technique	refers to	matrix	endpoint	value
O=C(Nc1cc2nc(-c3ccc(F)c(F)c3)cn2cn1)N1CC[C@H](F)C1	–	–	–	–	–	EC50	> 50 µM
CCC1=C(O)c2c(oc(-c3ccc(OC)c4ccccc34)cc2=O)C(CC)(CC)C1=O	cell growth	–	SRB	–	–	IC50	1.48 µM
COc1cc([C@@H]2O[C@@H](c3cc(O)c(OC)c(OC)c3)[C@H](C)[C@H]2C)ccc1O	mRNA level	down-regulation	–	PCSK9 mRNA	–	IC50	3.15 µM
CC(=NN=C1SCC(=O)N1Cc1cn(C2OCC(O)C(O)C2O)nn1)c1cccnc1 (centres unmarked)	cell proliferation	–	–	–	–	IC50	2.09 µM
FC(F)(F)c1ccc(-c2nc3c(o2)c(C(F)(F)F)cc2cc[nH]c23)cc1	–	–	–	PCSK9 protein expression	–	IC50	0.0297 µM
CCC1=C(O)c2c(oc(-c3ccc4cc(OC)ccc4c3)cc2=O)C(CC)(CC)C1=O	cell growth	–	SRB	–	–	IC50	13.4 µM
O=C1NCC(Cc2ccccc2)N(CC2CCCN2CC(CC2CCCCC2)N2CC(Cc3ccc(O)cc3)N(CCc3ccccc3)C(=O)C2=O)C1=O (centres unmarked)	cell viability	–	–	–	liver	IC50	> 100 µM
C/C(=N\NC(=O)c1ccc([N+](=O)[O-])cc1)c1ccc(NC(=O)c2cccnc2)cc1	–	–	–	–	–	IC50	4.61 µM
O=C(c1ccc(Br)cc1)[C@H]1[C@H](c2cn(-c3ccccc3)nc2-c2ccccc2)C2CC3CCCCC3N2[C@]12C(=O)Nc1ccc(Cl)cc12 (some centres unmarked)	cell growth	–	–	–	–	IC50	1.04 ± 0.21 µM
CCC1=C(O)c2c(oc(-c3cccc4ccccc34)cc2=O)C(CC)(CC)C1=O	cell growth	–	SRB	–	–	IC50	2.06 µM
C/C(=N\Nc1ccccc1)c1ccc(NC(=O)c2cccnc2)cc1	–	–	–	–	–	IC50	4.09 µM
